Experimental data from different studies.
Parts stem from different laboratories: compare values within a part only.

Series 1
Target: RNA binding protein fox-1 homolog 2, RRM domain, GST-SBP tag (RBFOX2, Homo sapiens, UniProt O43251-10, residues 100-194)
Method: RNA Bind-n-Seq
Molecule type: RNA
Sample: in vitro
Tested at: 365 nM
Setting: natural RNA segment, single round, ends assumed
Relative to: no-protein control
Reading: higher = stronger binding
All sequences stand within: GGGAGUUCUACAGUCCGACGAUC … UGGAAUUCUCGGGUGCCAA
Construct (chain): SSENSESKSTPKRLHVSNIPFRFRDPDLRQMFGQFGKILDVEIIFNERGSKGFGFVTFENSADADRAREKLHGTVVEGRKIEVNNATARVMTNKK
Strand	RBNS enrichment (R)
AGCAAAUAUUGUCUUCAAAAGAAUGCACAAGAACCACAAUUAAGAUGUCAUAUUAUUUUGAAAGUACAAAAUAUACUAAAAGAGUGUGUGUGUAUUCACGCAGUUACUCG	0.497
CACCCCACUCCCUGAUCUCACAAAAGUGCGAGUUUCCAGUCCUGACUAACUAGGGCUCCAGUCAGUAUUCCCCUGGCCGGCUUCCCAGAUGCCCUGGACGGCACUCUGUU	0.437
GUCUUGGCCCUGUCCCUGCCCUGGGGUCCAGCAGGUCAUCCCUCCCUUCUUCUCUCUCCUUUGGCGUUUGUUCCUGUAGUCACUGGGCUAAUCUCCCCCUAGCUUCAAGC	0.747
AAGAGAGCUAGACAGCAGCAUUACCCACUCUGAAGUUUUCUACAAGAGAGUUGAGUGAAUCUGUUUACAUUUAGGAUAAUGUUUUUUUCUUCAAAAGACGCAAUUGCAAU	0.312
UGACUGAUAACAGCCAUUGCACUGAAGUGUGAGCUGUCCGUGUGUGACUUUAUAAAUACAGUUUUAAAACAUUUCACAUGCAUGGUAGCACGCAGAGGGUUUUGUUGUGG	0.656
AAGUGAACCAAACUAGUUCUCAGAAUUCUACAGAGAAGGAGGGAAUCAGACUGAGGAAGCUGUGACAUAGGACUUGAAGACCAAAGACUUUGAAAUUUGCGAGCUGCUCA	0.44
UCAAGGCCCCAGUGGCAACCAUGUGGUAAGUGGCCAACCAAGCCCUACCCAGGGUCACCCAACACACUCUGCCUUGAGCCUCUCCUCAGGGUCUAUUCCUUGCGUGGAUU	0.343
GGUUUAUCUUUGAGAUGAUAAAGCUAAAUUAUAGUCUUUUGCCAGAGAAACUGAGGUAACUGUCAUUAGAAAAGGUUUCUUAAAAUACUCACAAAGCUGUUAUUGGCUUC	0.509

Series 2
Target: Histone acetyltransferase KAT6A, winged helix 2, GST fusion (KAT6A, Homo sapiens, UniProt Q92794, residues 85-181)
Method: protein binding microarray
Molecule type: double-stranded DNA, one strand shown
Sample: in vitro
Tested at: not given
Setting: 8-mer, flanks averaged, mean of 2 arrays, mostly near background
Relative to: not given
Reading: higher = stronger binding
Residues (chain): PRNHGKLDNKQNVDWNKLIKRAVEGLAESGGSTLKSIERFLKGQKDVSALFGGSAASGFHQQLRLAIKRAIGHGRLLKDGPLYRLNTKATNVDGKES
Strand	E-score
CCTCGACC	-0.0661
AACCATCT	-0.104
ACGGATGA	-0.0288
CAACCATC	0.0359
CCGATATA	-0.119
CCATGAAC	0.0901
GCCATGTA	-0.156
ATCATGAG	-0.0547
AGCATCTC	-0.0898
ACTGTACC	-0.188
AAGCACGT	-0.0522
CTAGACGC	-0.0178
ACCTGAGC	0.00942
AATCCGAA	-0.0422
AACTTTAG	-0.0864
GAGCGTGA	-0.143
TTCGCGAA	0.245
ATCGTGAA	-0.133
AATACAAC	-0.0642
CCCATGCG	-0.0644
TCACTGCA	0.172
CAGTTCCA	-0.0111
AGAGCTGG	0.00969
CCTAGGCA	-0.107
CTAATCTA	0.0622

Series 3
Target: Interferon regulatory factor 5, full length, phosphomimetic (IRF5, Homo sapiens, UniProt Q13568-2, residues 1-514, K96S/S451D/S453D/S456D/S462D)
Method: protein-binding microarray
Molecule type: double-stranded DNA, one strand shown
Sample: in vitro
Tested at: 250 nM
Setting: 60-bp whole probe
With: salmon DNA 0.4 mg/ml
Relative to: random background probes
Reading: higher = stronger binding
All sequences stand within: GCCTAGCAC … GTCTTGATTCGCTTGACGCTGCTG
Strand	log fluorescence
TTAGGTTCCCTTCTCCTTTAGTGCTAG	0.545 z-score
TCATGTATGAGCCTCTGACTGTGCTAG	-0.178 z-score
GACGGGATCGGTTTCGGGACGTGCTAG	3.39 z-score
TCCCCTCCGGGACCCGCCTCGTGCTAG	-0.412 z-score
GAATCTCCCATTATATTTTAGTGCTAG	0.533 z-score
TTAGGTATCCTTATCCGTTAGTGCTAG	0.254 z-score
TTATAACTGAGTTTCGATTAGTGCTAG	9.71 z-score
TTAGGTTTCGGGTATAGGTTAGTGCTA	8.46 z-score
GACCATATCAGACTGGAGACGTGCTAG	-0.0515 z-score
TTAGGTTTCCTTCTCCTTAAGTGCTAG	1.53 z-score
TTAGGTCTCCTTTTCCTATAGTGCTAG	0.543 z-score
TTAGGTTTCGACTTTGGGTTAGTGCTA	6.41 z-score
TCACATCTCGGAGATCTCACTGTGCTA	0.0221 z-score
TCATGTCCTCCTCTCTCACTGTGCTAG	-0.188 z-score
CTAGATCTCAGACTGGATTAGTGCTAG	-0.231 z-score
TTAGGTTCCGGTTTCCGTTAGTGCTAG	2.85 z-score
GACGGTTTCCGGACTGGGGACGTGCTA	-0.0573 z-score
TCACCTCTTTCTCTGCTACTGTGCTAG	1.32 z-score
GACGATATCAGACTGGAGCCGTGCTAG	-0.122 z-score

Series 4
Target: RING finger protein unkempt homolog, zinc fingers 1-6, GST-SBP tag (UNK, Homo sapiens, UniProt Q9C0B0, residues 30-357)
Method: RNA Bind-n-Seq
Molecule type: RNA
Sample: in vitro
Tested at: not given
Setting: RNA with constant flanks, ends assumed
Relative to: input RNA pool
Reading: higher = stronger binding
All sequences stand within: GGGAGUUCUACAGUCCGACGAUC … CAACAGAGGAUUGAGCAUCA
Target sequence (chain): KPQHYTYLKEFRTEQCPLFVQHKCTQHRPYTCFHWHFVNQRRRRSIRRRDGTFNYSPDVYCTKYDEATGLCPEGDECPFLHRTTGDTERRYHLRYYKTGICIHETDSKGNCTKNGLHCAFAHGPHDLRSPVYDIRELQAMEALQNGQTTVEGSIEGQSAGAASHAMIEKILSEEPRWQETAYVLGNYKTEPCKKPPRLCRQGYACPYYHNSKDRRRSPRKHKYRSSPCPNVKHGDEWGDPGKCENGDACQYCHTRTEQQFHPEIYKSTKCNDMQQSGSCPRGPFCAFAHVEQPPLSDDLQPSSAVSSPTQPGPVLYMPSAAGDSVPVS
Strand	bound/input enrichment
GUAGAAUUCUGUCAUCCUGAAGACCAGCAGCUUCUAAGAGACAGCUUCCAACAGGCCGUGAAAUUAAAAGGCCAAGUGCUGUCUGUCAUGUUCCGGUUCCGGUCUAAGAACCAAGAAUGG	0.162 ratio
AAGCCCUACCAACAGCUACAGAAUAUCAUAUGCUAUGACUGUGUUGCCUUUUUUUUCCGCCCGUUUUCAUUGUGUUCUGUUUUCACUCUUGAUAAGUAAAAAACUCUGAAAUUGCCACUG	0.368 ratio
AAUGAAUCACUGAACAACCUCUUUAUUACUGAAGAAGAUUACCAGGCUCUGCGAACAUCAACCGAUGCUUAUGACAACUUUGACAACAUCUCACUUGCUCAGCGUUUGGAAAAACACGAA	0.0941 ratio
GCACCAAAGUAUCAGAUAGGAGAGAGAAUCCGAGUCAUCCUGGACAUGGAGGAUAAGACUUCCGCUUUUGAGCGUGGGUAUGAGUUCCUGGGGGUUGCCUUUCGAGGACUUCCAAAAGCC	0.125 ratio
AUUUUUUUAUUUGUUUUCAGGGGGGUUUUUUGGGGGAAAAUUUUUUUAAAUGGAAGCUUCCCGCAAGCCCCCCACCCCAAUCAACCUCUAUGCUUUCUUCUUAAAAAAAAAAAAAAAGGA	0.962 ratio
GUUGUGUUUUGUUUUUGUUUCCUUUUGUUUAUGUUUUGGCCUUUCCUCUUUGUCUUUCCAUGCCGACCAGAUAUUUGAAAGGGCAGACGAUGGCUAGAGGUGUAAUGUGCAGCUUGUUUA	0.666 ratio
CGGCUAAAGAUUGACUUUGGGGAAGCUGCCAGGGCAGAUGAUGCCCGGCAAUUAUUUGUUUCCGCUGGCAGUGCUGAAGAAGGAGUCAUGACUCCAGAACUAGCAGGAGUGAUUAAACGG	0.251 ratio
CGCCUGGUGGACAGCAAAGGCUUUGAUGAAUACAUGAAGGAGCUAGGAGUGGGAACCGCUUUGCGAAAAAUGGGCGCAAUGGCCAAGCCAGAUUGUAUCAUCACUUGUGAUGGUAAAAAC	0.13 ratio

For quick reference, copied from above (series 3):
Strand	log fluorescence
GACCATATCAGACTGGAGACGTGCTAG	-0.0515 z-score
GACGGTTTCCGGACTGGGGACGTGCTA	-0.0573 z-score
TTAGGTTCCGGTTTCCGTTAGTGCTAG	2.85 z-score
